# Experimental data of several laboratories.
# A part holds a random share of what one study measured. Positions count from the first letter of the parent shown.
# Chain of UniProt P53779 (whole entry, looked up): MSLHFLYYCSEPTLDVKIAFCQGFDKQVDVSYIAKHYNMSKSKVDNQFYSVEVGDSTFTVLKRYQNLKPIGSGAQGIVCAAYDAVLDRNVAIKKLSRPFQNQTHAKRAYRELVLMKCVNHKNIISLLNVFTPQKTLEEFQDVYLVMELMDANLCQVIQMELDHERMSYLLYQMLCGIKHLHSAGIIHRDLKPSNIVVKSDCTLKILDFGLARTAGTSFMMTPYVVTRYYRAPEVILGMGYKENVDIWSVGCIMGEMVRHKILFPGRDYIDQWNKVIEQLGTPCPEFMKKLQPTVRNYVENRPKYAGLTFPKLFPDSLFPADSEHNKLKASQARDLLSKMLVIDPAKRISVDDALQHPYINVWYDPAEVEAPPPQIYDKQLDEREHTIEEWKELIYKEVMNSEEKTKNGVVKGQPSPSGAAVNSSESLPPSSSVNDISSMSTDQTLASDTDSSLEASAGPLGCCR

# Sample 1 — method: protein-binding microarray; molecule type: double-stranded DNA, one strand shown; matrix: in vitro; tested at: 250 nM; notes: 60-bp whole probe; with: salmon DNA 0.4 mg/ml; baseline: random background probes; reading: higher = stronger binding; all sequences stand within: GCCTAGCAC … GTCTTGATTCGCTTGACGCTGCTG
# Target: Interferon regulatory factor 5, full length, phosphomimetic (IRF5, Homo sapiens, UniProt Q13568-2, residues 1-514, K96S/S451D/S453D/S456D/S462D)
Sequence,log fluorescence [z-score]
GACGGTATCGGTCCCGGGACGTGCTAG,4.89
TCAGGTTTCGACTTTCGGTTAGTGCTA,10.8
TCATCAATCATTTTAGTACTGTGCTAG,0.792
TTAGATATCGGGACTGGTTTAGTGCTA,1.21
TTTGCTTTCTTTATGCACTCGTGCTAG,2.48
TAAGGTATCCTTATCCTTTAGTGCTAG,0.0358
TCATTTTTTTTTTTTTAACTGTGCTAG,1.06
GACGGTCTCCTTCTCCTGGCGTGCTAG,0.16

# Sample 2 — method: universal PBM; molecule type: double-stranded DNA, one strand shown; matrix: in vitro; tested at: 600 nM; reading: higher = stronger binding
# Target: Sal-like protein 4, full length isoform A (SALL4, Homo sapiens, UniProt Q9UJQ4, residues 1-1053)
# Chain of UniProt Q9UJQ4 (whole entry, looked up): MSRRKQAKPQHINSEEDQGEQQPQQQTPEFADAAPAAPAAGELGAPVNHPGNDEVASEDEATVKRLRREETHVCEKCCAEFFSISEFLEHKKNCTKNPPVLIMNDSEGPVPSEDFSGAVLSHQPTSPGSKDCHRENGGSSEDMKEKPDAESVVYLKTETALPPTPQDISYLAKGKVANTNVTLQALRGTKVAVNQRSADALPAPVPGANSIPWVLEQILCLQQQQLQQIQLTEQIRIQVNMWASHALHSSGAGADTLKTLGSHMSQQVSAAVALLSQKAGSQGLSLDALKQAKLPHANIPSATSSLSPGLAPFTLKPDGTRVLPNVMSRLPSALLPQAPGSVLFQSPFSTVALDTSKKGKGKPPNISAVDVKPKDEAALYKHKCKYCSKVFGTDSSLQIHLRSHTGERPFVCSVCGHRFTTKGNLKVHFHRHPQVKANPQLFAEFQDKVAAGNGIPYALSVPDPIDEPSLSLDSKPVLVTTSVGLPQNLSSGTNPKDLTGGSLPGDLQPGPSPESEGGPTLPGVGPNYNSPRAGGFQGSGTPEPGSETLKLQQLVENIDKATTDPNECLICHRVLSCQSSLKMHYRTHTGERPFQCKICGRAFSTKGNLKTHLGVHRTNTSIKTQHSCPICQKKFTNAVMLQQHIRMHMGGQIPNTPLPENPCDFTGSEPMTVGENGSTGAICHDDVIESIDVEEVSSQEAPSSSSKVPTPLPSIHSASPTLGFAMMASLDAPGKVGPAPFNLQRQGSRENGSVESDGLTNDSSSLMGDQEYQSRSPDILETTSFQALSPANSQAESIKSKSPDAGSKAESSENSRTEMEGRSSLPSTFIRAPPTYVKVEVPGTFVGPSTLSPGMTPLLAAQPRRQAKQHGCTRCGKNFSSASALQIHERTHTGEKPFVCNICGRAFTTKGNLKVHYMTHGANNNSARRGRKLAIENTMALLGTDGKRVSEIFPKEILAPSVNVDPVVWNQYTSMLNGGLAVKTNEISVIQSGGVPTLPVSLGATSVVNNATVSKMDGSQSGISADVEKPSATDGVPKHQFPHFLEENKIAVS
# Notes: 8-mer, flanks averaged, mean of replicates
Sequence,E-score
AGGACTTG,-0.199
GCTCGTAC,-0.0161
CCTCTACG,-0.15
AGGTGCGC,-0.171
CAGTTGAG,-0.208
AACGCTTA,-0.0484
GCGTGCAC,-0.175
CAATGAAG,-0.00713

# Sample 3 — target: CCND1, cyclin fold, Cln2 fusion (human); method: yeast growth competition, sequencing; matrix: yeast; notes: strong parent motif; baseline: not given; reading: higher = stronger binding
# Parent: INSM1 docking peptide (human); PKAIRKLHFEDEV; partner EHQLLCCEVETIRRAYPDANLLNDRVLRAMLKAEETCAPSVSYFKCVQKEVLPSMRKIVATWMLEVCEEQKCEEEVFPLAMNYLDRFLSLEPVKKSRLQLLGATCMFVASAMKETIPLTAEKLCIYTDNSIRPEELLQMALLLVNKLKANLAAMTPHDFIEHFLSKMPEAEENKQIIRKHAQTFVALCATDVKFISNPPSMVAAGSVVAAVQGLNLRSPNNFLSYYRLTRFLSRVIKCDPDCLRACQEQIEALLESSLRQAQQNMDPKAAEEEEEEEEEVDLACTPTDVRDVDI
Variant,normalised enrichment score
E12G,3.79
F9D,-0.291
R5F,0.571
D11Y,2.79
E12I,4.02
F9I,-0.0118
F9T,0.0156
K6H,3.29

# Further values, each from its own experiment
Structure (SMILES),target,effect on,method,tested at,measurement,result
O=C(O)c1cc(-c2ccc(C3CCNCC3)cc2)c2ccc(-c3ccc(C(F)(F)F)cc3)cc2c1,"Mitogen-activated protein kinase 10 (MAPK10, Homo sapiens, UniProt P53779)",cell-free assay,competition with immobilised ligand,1 µM,remaining binding,100%

# For quick reference, copied from above (sample 3):
Variant,normalised enrichment score
F9I,-0.0118
F9T,0.0156
K6H,3.29
